Results from different studies.
Every numbered part comes from another study and shows a few of its results, in no order. Values joined by “and” are separate records of one study, mostly repeats; a detail may differ.
Sequence of UniProt P07333 (whole entry, looked up): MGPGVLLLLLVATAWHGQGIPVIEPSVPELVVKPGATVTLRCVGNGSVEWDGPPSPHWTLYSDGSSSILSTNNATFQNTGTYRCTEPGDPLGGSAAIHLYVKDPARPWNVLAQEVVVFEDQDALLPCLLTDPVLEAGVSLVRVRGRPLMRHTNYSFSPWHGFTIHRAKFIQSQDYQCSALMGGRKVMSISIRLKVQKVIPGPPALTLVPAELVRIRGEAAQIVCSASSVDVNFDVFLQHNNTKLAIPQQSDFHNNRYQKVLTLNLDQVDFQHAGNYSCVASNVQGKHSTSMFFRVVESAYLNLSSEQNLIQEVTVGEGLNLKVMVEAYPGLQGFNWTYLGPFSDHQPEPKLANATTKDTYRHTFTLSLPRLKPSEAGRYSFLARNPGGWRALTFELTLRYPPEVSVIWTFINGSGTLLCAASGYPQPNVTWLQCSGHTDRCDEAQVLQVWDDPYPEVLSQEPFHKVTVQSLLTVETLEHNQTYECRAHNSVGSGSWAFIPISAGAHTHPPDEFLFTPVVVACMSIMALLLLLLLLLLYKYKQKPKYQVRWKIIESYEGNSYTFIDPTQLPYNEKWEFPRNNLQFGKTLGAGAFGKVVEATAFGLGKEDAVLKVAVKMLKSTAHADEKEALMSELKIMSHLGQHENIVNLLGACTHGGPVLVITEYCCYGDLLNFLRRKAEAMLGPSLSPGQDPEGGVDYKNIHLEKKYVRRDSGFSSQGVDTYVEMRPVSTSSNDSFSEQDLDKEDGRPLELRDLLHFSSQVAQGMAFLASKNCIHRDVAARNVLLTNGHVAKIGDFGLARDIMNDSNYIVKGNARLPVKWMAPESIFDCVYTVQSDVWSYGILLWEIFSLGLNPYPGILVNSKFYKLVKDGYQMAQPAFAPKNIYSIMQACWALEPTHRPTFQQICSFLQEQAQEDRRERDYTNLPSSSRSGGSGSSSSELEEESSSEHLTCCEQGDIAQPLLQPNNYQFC
Sequence of UniProt P08581 (whole entry, looked up): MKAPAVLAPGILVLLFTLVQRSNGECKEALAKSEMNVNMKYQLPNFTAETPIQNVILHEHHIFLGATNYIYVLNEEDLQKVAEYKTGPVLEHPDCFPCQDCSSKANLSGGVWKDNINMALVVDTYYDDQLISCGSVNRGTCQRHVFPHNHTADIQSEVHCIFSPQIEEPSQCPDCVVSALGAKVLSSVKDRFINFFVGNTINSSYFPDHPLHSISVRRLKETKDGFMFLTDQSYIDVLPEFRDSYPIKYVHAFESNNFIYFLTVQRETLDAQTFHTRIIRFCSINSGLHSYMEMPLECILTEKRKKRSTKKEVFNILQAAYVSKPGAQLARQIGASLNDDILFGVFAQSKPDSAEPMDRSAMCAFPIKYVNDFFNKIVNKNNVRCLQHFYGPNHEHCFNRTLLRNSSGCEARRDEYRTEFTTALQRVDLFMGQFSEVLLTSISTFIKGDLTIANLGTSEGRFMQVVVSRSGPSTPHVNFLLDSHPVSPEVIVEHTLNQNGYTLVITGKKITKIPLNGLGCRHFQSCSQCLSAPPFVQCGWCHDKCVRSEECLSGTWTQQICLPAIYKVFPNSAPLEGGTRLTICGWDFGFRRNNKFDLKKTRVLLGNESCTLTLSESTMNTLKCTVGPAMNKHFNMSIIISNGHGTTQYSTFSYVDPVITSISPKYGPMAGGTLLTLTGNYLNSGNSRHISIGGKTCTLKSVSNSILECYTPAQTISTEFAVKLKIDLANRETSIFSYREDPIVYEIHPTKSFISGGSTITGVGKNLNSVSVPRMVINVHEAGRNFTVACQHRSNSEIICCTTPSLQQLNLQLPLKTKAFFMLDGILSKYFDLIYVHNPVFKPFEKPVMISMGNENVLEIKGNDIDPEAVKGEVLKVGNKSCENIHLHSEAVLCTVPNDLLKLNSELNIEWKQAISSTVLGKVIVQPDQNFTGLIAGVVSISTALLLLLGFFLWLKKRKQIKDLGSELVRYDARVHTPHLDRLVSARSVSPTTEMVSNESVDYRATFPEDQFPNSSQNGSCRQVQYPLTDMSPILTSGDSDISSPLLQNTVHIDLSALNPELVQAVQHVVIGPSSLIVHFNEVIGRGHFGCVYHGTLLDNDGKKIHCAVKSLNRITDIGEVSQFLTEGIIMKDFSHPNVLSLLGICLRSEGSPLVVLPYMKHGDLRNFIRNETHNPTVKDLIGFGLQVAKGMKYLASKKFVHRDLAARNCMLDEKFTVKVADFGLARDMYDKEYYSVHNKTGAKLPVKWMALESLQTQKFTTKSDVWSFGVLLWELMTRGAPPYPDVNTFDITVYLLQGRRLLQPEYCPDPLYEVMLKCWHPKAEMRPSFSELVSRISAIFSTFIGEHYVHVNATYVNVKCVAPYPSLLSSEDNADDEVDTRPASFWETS
Sequence of UniProt O14920 (whole entry, looked up): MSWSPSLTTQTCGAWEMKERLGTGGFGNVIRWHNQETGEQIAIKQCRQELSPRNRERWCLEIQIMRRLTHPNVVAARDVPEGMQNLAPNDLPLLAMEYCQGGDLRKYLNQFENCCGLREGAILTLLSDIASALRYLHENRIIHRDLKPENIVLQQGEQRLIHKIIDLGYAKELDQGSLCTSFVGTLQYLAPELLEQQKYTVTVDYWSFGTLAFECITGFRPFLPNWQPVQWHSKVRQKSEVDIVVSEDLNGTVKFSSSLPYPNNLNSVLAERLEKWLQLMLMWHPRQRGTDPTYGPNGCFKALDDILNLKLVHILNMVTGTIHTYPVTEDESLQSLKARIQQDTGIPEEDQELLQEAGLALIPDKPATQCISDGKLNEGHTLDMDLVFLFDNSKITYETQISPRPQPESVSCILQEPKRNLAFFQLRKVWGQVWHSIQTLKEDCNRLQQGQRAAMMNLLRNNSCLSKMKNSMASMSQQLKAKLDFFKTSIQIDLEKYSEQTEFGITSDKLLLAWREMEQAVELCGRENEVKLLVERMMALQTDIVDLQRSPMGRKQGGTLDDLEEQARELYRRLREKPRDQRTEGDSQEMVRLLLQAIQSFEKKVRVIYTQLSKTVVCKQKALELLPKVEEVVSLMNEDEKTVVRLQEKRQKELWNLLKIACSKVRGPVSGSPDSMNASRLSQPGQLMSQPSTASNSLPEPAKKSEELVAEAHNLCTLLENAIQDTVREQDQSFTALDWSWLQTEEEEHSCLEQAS
Sequence of UniProt P49841 (whole entry, looked up): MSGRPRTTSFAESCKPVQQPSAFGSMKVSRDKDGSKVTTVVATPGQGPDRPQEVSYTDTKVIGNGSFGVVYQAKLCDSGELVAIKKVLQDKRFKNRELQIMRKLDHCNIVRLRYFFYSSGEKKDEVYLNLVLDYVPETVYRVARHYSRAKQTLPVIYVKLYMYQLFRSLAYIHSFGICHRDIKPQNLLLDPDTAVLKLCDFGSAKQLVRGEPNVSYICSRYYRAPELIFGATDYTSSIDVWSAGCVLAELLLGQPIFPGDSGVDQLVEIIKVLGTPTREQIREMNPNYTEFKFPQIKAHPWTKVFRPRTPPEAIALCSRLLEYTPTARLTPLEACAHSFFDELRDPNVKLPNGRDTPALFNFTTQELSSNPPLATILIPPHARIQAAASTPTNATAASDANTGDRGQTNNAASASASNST

Series 1 — cell line: U-87 MG; tested at: concentration not given; baseline: DMSO
SMILES: CCN1/C(=C/C=C2\CCCC(/C=C/C3=[N+](CC)c4ccccc4C3(C)C)=C2NCCCCCCCCN2CCC(Nc3nc4ccccc4n3Cc3ccc(F)cc3)CC2)C(C)(C)c2ccccc21
test | log2 fold change
measured: SLC25A18 mRNA | -1.7
measured: GGH | -0.927
measured: SYNGR2 mRNA | 1.8
measured: ZNF608 mRNA | -1.73
measured: MORN3 mRNA | 1.86
measured: IGFBP3 mRNA | 2.3
measured: DIXDC1 mRNA | -1.13
measured: IFIT1 mRNA | -2.58
measured: SYTL3 mRNA | 1.47
measured: MDFIC mRNA | -0.838
measured: KIF2C mRNA | -1.61
measured: ZFAND6 mRNA | 0.842
measured: AK9 mRNA | 1.08
measured: ABCA13 mRNA | 1.7
measured: TENT5B mRNA | -3.75
measured: KRBOX4 mRNA | 0.818

Series 2 — observed: thermal unfolding; method: differential scanning fluorimetry; tested at: 5.5 µM; reading: higher = more unfolded
Structure (SMILES): C[C@@H]1CN(c2ccc(-c3cc(C(=O)NCCOCCOCCOCCOCCOCCOCCNC(=O)/C=C/c4[nH]cc(C(=O)N[C@@H](CC(N)=O)c5ccc(F)c(Cl)c5)c4-c4ccc(Cl)cc4F)ccc3F)cc2NC(=O)c2ccc(F)cc2C(F)(F)F)C[C@H](C)N1C
DCAF1: DDB1- and CUL4-associated factor 1 (DCAF1, Homo sapiens, UniProt Q9Y4B6)
Sequence of UniProt Q9Y4B6 (whole entry, looked up): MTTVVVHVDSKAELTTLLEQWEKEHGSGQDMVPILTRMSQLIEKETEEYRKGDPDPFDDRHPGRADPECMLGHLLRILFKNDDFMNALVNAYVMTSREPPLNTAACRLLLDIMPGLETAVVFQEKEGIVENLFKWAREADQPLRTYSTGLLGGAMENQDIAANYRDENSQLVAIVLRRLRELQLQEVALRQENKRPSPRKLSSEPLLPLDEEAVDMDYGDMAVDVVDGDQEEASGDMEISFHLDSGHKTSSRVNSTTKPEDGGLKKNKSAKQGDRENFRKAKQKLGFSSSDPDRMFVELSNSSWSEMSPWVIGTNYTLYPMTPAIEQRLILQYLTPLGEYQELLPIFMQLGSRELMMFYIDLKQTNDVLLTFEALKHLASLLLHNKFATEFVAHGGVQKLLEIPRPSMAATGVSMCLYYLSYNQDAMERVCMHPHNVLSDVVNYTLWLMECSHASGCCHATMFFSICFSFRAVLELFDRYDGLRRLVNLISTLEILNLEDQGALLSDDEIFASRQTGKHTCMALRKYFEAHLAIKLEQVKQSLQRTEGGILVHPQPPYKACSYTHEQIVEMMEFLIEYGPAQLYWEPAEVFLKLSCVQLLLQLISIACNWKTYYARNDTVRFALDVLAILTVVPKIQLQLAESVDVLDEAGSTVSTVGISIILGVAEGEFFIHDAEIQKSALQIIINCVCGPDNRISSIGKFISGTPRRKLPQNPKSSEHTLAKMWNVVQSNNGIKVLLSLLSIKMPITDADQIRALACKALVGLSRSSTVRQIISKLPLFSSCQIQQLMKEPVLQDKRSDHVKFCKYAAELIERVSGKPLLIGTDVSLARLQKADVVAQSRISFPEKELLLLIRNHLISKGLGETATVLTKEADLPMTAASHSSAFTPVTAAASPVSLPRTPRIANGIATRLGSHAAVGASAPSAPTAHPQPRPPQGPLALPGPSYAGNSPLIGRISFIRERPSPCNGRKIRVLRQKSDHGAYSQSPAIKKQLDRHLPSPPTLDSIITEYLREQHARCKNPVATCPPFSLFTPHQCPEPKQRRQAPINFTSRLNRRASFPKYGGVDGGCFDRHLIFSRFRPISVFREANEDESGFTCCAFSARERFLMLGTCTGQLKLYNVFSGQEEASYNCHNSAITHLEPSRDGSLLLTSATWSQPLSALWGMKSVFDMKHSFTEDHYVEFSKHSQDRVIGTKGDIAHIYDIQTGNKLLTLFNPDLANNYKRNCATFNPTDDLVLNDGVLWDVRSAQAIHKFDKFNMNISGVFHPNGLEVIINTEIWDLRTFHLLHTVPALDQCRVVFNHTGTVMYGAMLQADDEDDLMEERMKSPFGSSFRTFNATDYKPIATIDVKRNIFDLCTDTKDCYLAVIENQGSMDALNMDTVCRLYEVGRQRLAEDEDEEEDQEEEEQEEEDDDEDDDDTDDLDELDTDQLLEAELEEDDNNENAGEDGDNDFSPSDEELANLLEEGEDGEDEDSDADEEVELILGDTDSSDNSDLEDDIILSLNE
WDR5: WD repeat-containing protein 5 (WDR5, Homo sapiens, UniProt P61964)
target | setting | SYPRO Orange fluorescence [a.u.]
DCAF1 | 25 °C | 7500
WDR5 | 46.2 °C | 14900
DCAF1 | 91.01 °C | 31600
WDR5 | 66.41 °C | 18100
WDR5 | 50.6 °C | 16600
DCAF1 | 87.01 °C | 34300
DCAF1 | 49 °C | 17300
WDR5 | 59.21 °C | 15600
WDR5 | 78.21 °C | 60900
WDR5 | 48 °C | 15500
WDR5 | 35.2 °C | 14000

Series 3 — observed: kinase activity
Compound: CNc1ncc2cc(-c3cc(OC)cc(OC)c3Cl)c(=O)n(CCc3ccc(NC(=O)C(C#N)=CC(C)(C)N4CCOCC4)cc3)c2n1
target | setting | inhibition
ALK tyrosine kinase receptor (ALK, Homo sapiens, UniProt Q9UM73) | 0.1 µM | 1%
Fibroblast growth factor receptor 3 (FGFR3, Homo sapiens, UniProt P22607) | 1 µM | 97%
Inhibitor of nuclear factor kappa-B kinase subunit epsilon (IKBKE, Homo sapiens, UniProt Q14164) | 1 µM | 1%
Phosphatidylinositol 4,5-bisphosphate 3-kinase catalytic subunit delta isoform (PIK3CD, Homo sapiens, UniProt O00329) | 1 µM | 8%
Inhibitor of nuclear factor kappa-B kinase subunit beta (IKBKB, Homo sapiens, UniProt O14920) | 0.1 µM | 1%
Macrophage colony-stimulating factor 1 receptor (CSF1R, Homo sapiens, UniProt P07333) | 1 µM | 95% and > 90%
Serine/threonine-protein kinase BRSK2 (BRSK2, Homo sapiens, UniProt Q8IWQ3) | 0.1 µM | -2%
Serine/threonine-protein kinase 24 (STK24, Homo sapiens, UniProt Q9Y6E0) | 1 µM | 14%
Glycogen synthase kinase-3 beta (GSK3B, Homo sapiens, UniProt P49841) | 0.1 µM | 0%
Hepatocyte growth factor receptor (MET, Homo sapiens, UniProt P08581) | 1 µM | 2%
Dual specificity protein kinase CLK1 (CLK1, Homo sapiens, UniProt P49759) | 0.1 µM | 4%
Ribosomal protein S6 kinase alpha-1 (RPS6KA1, Homo sapiens, UniProt Q15418) | 0.1 µM | -2%
MAP kinase-activated protein kinase 5 (MAPKAPK5, Homo sapiens, UniProt Q8IW41) | 0.1 µM | 1%
Cyclin-dependent kinase 1 (CDK1, Homo sapiens, UniProt P06493) | 0.1 µM | 6%

Series 4
Compound: Cc1ccc(O)c(C)c1-c1cnc2[nH]c(-c3cnc(N4CC5(CC(CN6CCN(c7ccc(NC8CCC(=O)NC8=O)cc7F)CC6)C5)C4)nc3)cc2c1C#N (centres unmarked)
Target: Membrane-associated tyrosine- and threonine-specific cdc2-inhibitory kinase (PKMYT1, Homo sapiens, UniProt Q99640)
Residues (Q99640 1-499): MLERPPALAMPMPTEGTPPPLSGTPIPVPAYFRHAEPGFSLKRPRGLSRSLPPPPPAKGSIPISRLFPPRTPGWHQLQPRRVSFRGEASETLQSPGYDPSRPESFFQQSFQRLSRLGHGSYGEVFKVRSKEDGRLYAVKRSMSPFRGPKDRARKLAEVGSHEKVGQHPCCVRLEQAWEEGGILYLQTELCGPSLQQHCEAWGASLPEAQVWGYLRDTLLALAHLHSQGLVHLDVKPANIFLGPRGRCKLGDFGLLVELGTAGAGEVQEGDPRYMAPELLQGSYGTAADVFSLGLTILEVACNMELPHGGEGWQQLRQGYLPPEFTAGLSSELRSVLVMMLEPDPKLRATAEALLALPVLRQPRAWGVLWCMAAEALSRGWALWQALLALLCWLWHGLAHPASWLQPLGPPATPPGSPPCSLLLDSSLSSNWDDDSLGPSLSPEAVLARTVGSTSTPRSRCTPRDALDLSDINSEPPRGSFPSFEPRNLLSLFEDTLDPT
test | setting | inhibition [%]
 | 0.3333 µM | 99.3
 | 0.01235 µM | 92.9
 | 0.00046 µM | 8.09
 | 5.1e-05 µM | -6.57
cell-free assay, inhibitor, TR-FRET | 1 µM | 99.5
cell-free assay, inhibitor, TR-FRET | 0.1111 µM | 99.4
 | 0.03704 µM | 97.9
cell-free assay, inhibitor, TR-FRET | 1.37 nM | 26.8
 | 0.00137 µM | 24.4
 | 0.00412 µM | 64.5
cell-free assay, inhibitor, TR-FRET | 4.12 nM | 66.1
cell-free assay, inhibitor, TR-FRET | 0.3333 µM | 99.1

For quick reference, copied from above (series 3):
target | setting | inhibition
Serine/threonine-protein kinase BRSK2 (BRSK2, Homo sapiens, UniProt Q8IWQ3) | 0.1 µM | -2%
Inhibitor of nuclear factor kappa-B kinase subunit epsilon (IKBKE, Homo sapiens, UniProt Q14164) | 1 µM | 1%
Hepatocyte growth factor receptor (MET, Homo sapiens, UniProt P08581) | 1 µM | 2%
Serine/threonine-protein kinase 24 (STK24, Homo sapiens, UniProt Q9Y6E0) | 1 µM | 14%
Cyclin-dependent kinase 1 (CDK1, Homo sapiens, UniProt P06493) | 0.1 µM | 6%
